Measured values of several laboratories.
Protocols differ between the studies behind these lines. ± marks the error that the study gave.

SMILES | assay | test system | setting | measurement | result
O=c1cc(-c2ccccc2)oc2c(Br)c(O)c(O)c(O)c12 | – | C57BL/6 mouse, plasma | oral, 150 mg/kg, single dose | Tmax | 1 h
CCCCCCCCCCCCC(=O)O.O=C1CCCC2C3CCCN4CCCC(CN12)C34 (centres unmarked) | electrical conductivity | water | 308.15 K, critical micelle concentration | standard entropy of micellization | 107 J/(mol·K)
CN(C)C(CNC(=O)Nc1cc(C(F)(F)F)ccc1N1CCOCC1)c1ccncc1 (centres unmarked) | – | mouse, serum | intraperitoneal, 120 mg/kg single dose | serum total protein | 4.5 g/dL
Cc1ccc(/C=C/C(=O)O)cc1-c1cc2c(cc1C)C(C)(C)CCC2(C)C | – | Sprague-Dawley rat, male | oral, 100 mg/kg, 6 h, sesame oil vehicle | blood triglycerides | 357 ± 307 mg/dL
COc1cc2c3c(c4cc(OC)c(OC)c(OC)c4c2cc1OC)CC1CCCN1C3=O (centres unmarked) | – | swine cells | 24 (unit not given) | CC50 | > 100 µM
COc1ccc(NC(=O)Cn2c(=O)c3ccccc3n(CC(=O)Nc3cc([125I])c(OC)cc3OC)c2=O)cc1 | – | rat, lung | intravenous, 5 min | tracer uptake | 0.64 %ID/g
CC[C@H](C)[C@H](NC(=O)[C@H](C)NC(=O)[C@H](CCCNC(=N)N)NC(=O)CNC(=O)CNC(=O)[C@H](CCCNC(=N)N)NC(=O)[C@H](CCCNC(=N)N)NC(=O)[C@H](CCCNC(=N)N)NC(=O)[C@H](CCC(N)=O)NC(=O)[C@H](CCCNC(=N)N)NC(=O)[C@H](CCCNC(=N)N)NC(=O)[C@H](CCCCN)NC(=O)[C@H](CCCCN)NC(=O)[C@H](CCCNC(=N)N)NC(=O)CNC(=O)[C@@H](N)Cc1ccc(O)cc1)C(=O)N[C@H](C(=O)N[C@H](C(=O)N[C@@H](CC(C)C)C(=O)N[C@@H](CC(=O)O)C(=O)N[C@H](C(=O)N[C@@H](CCC(=O)O)C(=O)N[C@@H](CCCCN)C(=O)N[C@@H](CO)C(=O)O)[C@@H](C)O)[C@@H](C)CC)[C@@H](C)O | – | rat, TRPV1 knockout, myocardial infarction | dose not given, 2 h reperfusion | rectal body temperature | 37 ± 0.1 °C
[2H]C([2H])([2H])C([2H])([2H])C([2H])([2H])OC(C(=O)OC1CCNCC1)(c1ccccc1)c1ccccc1 | measured: boredom | healthy Japanese male | oral, 10 mg, 16 days, multiple ascending dose | adverse drug reactions | 0%
COc1cc(NC(=O)C(=O)c2c(C)n(Cc3ccc(Cl)cc3)c3ccc(C)cc23)ccn1 | – | cynomolgus monkey, plasma | oral, 10 mg/kg | AUC(0-inf) | 3390 ng·h/mL
CCNc1cc2[o+]c3cc(NCC)c(C)cc3c(-c3ccccc3C(=O)OCCOCC[18F])c2cc1C | – | rat, muscle | 15 min | tissue uptake | 0.1 ± 0.02 %ID/g
O=C(c1ccc(F)cc1)C1CCN(C2Cc3c(cccc3OCC[18F])CC2O)CC1 (single isomer, unassigned; (-)) | – | Sprague-Dawley rat, male, liver | intravenous, dose not given, 120 min | tissue uptake | 0.382 ± 0.029 %ID/g

Repeated from above:
SMILES | assay | test system | setting | measurement | result
O=c1cc(-c2ccccc2)oc2c(Br)c(O)c(O)c(O)c12 | – | C57BL/6 mouse, plasma | oral, 150 mg/kg, single dose | Tmax | 1 h
COc1ccc(NC(=O)Cn2c(=O)c3ccccc3n(CC(=O)Nc3cc([125I])c(OC)cc3OC)c2=O)cc1 | – | rat, lung | intravenous, 5 min | tracer uptake | 0.64 %ID/g
